Results pooled from the literature.
A part holds a random share of what one study measured.
Sequence of UniProt P41595 (whole entry, looked up): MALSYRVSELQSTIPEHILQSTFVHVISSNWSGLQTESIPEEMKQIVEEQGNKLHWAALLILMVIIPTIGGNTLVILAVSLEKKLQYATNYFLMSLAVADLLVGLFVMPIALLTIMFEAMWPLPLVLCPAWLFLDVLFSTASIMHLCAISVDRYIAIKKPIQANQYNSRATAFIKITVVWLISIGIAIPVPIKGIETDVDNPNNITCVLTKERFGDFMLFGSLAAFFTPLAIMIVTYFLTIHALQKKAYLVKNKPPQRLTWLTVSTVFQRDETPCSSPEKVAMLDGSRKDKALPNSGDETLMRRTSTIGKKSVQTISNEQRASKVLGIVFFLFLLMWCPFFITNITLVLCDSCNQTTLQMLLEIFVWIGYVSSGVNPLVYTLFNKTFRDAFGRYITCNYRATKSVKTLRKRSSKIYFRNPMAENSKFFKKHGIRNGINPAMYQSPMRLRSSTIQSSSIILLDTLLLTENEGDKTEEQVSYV

Series 1
Target: RNA binding protein fox-1 homolog 2, RRM domain, GST-SBP tag (RBFOX2, Homo sapiens, UniProt O43251-10, residues 100-194)
Method: RNA Bind-n-Seq
Molecule type: RNA
Medium: in vitro
Concentration: 365 nM
Setting: natural RNA segment, single round, ends assumed
Baseline: no-protein control
Direction: higher = stronger binding
Endpoint: RBNS enrichment (R)
All sequences stand within: GGGAGUUCUACAGUCCGACGAUC … UGGAAUUCUCGGGUGCCAA
Target sequence (chain): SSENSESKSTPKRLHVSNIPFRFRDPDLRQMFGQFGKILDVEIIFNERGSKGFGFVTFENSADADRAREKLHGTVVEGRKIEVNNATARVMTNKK
AACCAAGUGGUGACUUUGUCCUCUGCCUGCUCAGUCACAAAGUAUAUCACUAGGCCAUAAAAAUGGAGAUGAUGUUUUGCUUGUGUCACAGUAGGUCUUGUGCAGUGUCA: 2.18
CACACUUCUCUUAUUUCUCCUAGAGCCCCGUGCCCCUCUGAAGUGUUACCACAAUCUAGCUUACCUAGCAGCCGUUGAUUGUUUUUUUUCCAUCUGAGCAAACAGGUAAU: 0.435
CAGAAUUCUAGAGACAGCGUUGUUCGGCAUCAAGGCAAAAGCCCACCUUUGCUUUUUAUGGAAAGCAUUACUUUAUUUAAAGAGACAGACAAUGACGCAUUUUAAUCUAC: 0.464
GAUCUCUGCUGCUGUGUCUUUAUCUACCCUUGCUAGCCCCGGCUCUGGUAGACCGUUCUGGAAUGGAGGGGCUAUGAUCGUCCUAGGACCUGUGCUACGGAGGGGUGGAG: 0.887
GUCUGCAGGAGCUCAGUUGGCUACAGAGGCCUGGUUUUAGAGACCAAGCCCUCCUCUGUGUCCAGUAAAUAAUGCUUAUCCCAAGGGGCCCGUCUCCCAGGGCAUUUCCC: 0.299
UCAGUCUAAAAAACGAAGGGAUGUGCAACUGCAGCUCUUUAAGAAGUUUUUUUUUUUUAGCUUCUAGGGUAAAGAUAAAUUCAGAAAUGCUCUAAGCUACCAAAGUUAUU: 0.411
AUCGAGGCCGCCCUCCCAGUCCUGGGUGAAGAUAUUUGGGCCACCAGGGCUCCCUUGGCCCCUUCACGUAGGAAAUAGACACGUGCUUUUUAAUGCAGGACACUUUGAGU: 0.654
AGUGGGAAUUAGGAGAGAAGGUAGGGGUUGGGAAUCAGAGAGAAUGGCUUUGGUCUCUUGCUUGUGGGACUAGCCUGGCUUGGGACUAAAUGCCCUGCUCUGAACACGAA: 2.82

Series 2
Target: Signal transducer and activator of transcription 1-alpha/beta, full length (STAT1, Homo sapiens, UniProt P42224, residues 1-750)
Sequence of UniProt P42224 (whole entry, looked up): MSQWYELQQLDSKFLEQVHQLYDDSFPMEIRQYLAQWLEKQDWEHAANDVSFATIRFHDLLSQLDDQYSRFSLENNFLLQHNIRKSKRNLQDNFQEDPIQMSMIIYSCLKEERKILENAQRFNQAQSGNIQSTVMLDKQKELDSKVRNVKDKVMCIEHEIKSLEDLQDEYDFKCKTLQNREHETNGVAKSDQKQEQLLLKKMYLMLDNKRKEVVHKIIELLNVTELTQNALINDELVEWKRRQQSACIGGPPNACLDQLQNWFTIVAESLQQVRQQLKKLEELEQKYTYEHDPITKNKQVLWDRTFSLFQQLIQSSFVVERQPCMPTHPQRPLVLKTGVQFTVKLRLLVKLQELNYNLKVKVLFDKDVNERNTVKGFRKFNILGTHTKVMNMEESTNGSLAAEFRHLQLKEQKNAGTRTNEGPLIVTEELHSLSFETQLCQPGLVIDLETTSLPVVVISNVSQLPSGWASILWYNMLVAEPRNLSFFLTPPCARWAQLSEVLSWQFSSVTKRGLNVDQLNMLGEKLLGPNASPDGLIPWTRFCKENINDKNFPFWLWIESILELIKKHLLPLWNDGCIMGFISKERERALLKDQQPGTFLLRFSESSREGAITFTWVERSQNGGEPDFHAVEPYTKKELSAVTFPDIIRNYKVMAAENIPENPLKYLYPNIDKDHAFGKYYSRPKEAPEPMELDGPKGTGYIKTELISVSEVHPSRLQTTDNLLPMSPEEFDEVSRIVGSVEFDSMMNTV
Method: protein-binding microarray
Molecule type: hairpin DNA
Medium: in vitro
Concentration: not given
Setting: whole hairpin DNA, median over replicate spots
Baseline: not given
Direction: higher = stronger binding
Endpoint: median fluorescence
All sequences stand within: GAGGCC … GGCCTCACACTCTTTCCCTACACG
TTTCCCGCTAGCCTCCTGGCTAGCGGGAAA (5mC at 14): 1070 a.u.
TTTCGCGGAAGCCTCCTGGCTTCCGCGAAA: 3360 a.u.
TTCCCCGGAAGCCTCCTGGCTTCCGGGGAA (5mC at 9): 2000 a.u.
TTTCCCGGCCGCCTCCTGGCGGCCGGGAAA (5mC at 15): 912 a.u.
CATCCCGGAAGCCTCCTGGCTTCCGGGATG: 1330 a.u.
TTTCCCGGCGGCCTCCTGGCCGCCGGGAAA (5mC at 15 27): 1610 a.u.
TTTCCTGGAAGCCTCCTGGCTTCCAGGAAA: 5350 a.u.
CGTCCCGGAAGCCTCCTGGCTTCCGGGACG (5mC at 35): 1110 a.u.

Mixed results
Concentration: 10 µM
COc1cc(N)c(Cl)cc1C(=O)NC1CCN(CCCOc2ccc(F)cc2)CC1OC.O (stereo not drawn)
inhibition (Sarcocystis neurona; parasite growth; secondary screen): -22%

O=C1CCc2cc(Nc3cc(OC4CCOCC4)c([N+](=O)[O-])cc3Cl)ccc2N1
inhibition (HTR2B (Homo sapiens, UniProt P41595); binding, radioligand binding): 3.31%
